Measured values of several laboratories.
Compare with care: the assays were run in different laboratories. ≈ marks a conversion by molar mass, not a printed value.
Chain of UniProt Q99623 (whole entry, looked up): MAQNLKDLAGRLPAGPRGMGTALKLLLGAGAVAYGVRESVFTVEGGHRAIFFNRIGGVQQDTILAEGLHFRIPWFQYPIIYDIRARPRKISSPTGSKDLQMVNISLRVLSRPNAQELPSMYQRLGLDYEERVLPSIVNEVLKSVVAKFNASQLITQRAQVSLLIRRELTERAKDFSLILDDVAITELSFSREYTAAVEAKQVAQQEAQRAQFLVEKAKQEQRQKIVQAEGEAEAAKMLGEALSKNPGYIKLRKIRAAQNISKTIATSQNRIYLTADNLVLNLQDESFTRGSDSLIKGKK
Chain of UniProt P41597 (whole entry, looked up): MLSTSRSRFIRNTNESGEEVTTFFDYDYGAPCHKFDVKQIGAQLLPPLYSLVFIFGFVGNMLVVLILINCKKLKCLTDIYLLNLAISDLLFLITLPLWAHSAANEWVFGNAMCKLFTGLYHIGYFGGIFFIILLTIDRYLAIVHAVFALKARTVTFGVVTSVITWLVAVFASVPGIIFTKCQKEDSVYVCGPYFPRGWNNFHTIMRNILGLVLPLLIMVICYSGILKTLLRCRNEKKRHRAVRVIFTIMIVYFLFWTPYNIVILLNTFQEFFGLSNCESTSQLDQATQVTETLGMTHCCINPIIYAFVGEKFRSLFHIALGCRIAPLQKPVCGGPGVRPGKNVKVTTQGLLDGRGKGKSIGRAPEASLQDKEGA

COc1cc(CCC[P+](c2ccccc2)(c2ccccc2)c2ccccc2)c(OC)c2c1OCO2.[I-]  GI50 (UO-31; SRB): -4.97 log M
CN1CCN(C2(CNC3CCN(c4cccc(-c5cc6cc(F)ccc6[nH]5)c4)CC3)CCC2)CC1  GI50 (NCI-H23): 1650 nM
Nc1ncnc2c1ncn2[C@@H]1O[C@@H]2COP(=O)(O)O[C@H]3[C@@H](O)[C@H](n4cnc5c(=O)[nH]cnc54)O[C@@H]3COP(=O)(O)O[C@H]2[C@H]1O  pathway fold enrichment (HFF-1; RNA sequencing, refers to: Hemostasis; upregulated pathway; baseline: Zika virus alone): 2.22
COc1ccc2c(c1)[nH]c1c(C)nccc12  methylation reduction (DU-145; bisulfite pyrosequencing, refers to: RASSF1A promoter CpG site 13; concentration not given; baseline: vehicle): 0.44%
CC[C@H](C)[C@H](NC(=O)[C@H](CCCCN)NC(=O)[C@@H](NC(=O)[C@H](C)NC(=O)[C@H](CC(C)C)NC(=O)[C@H](CCCCN)NC(=O)[C@H](Cc1ccccc1)NC(=O)[C@H](CC(C)C)NC(=O)[C@H](Cc1c[nH]cn1)NC(=O)CNC(=O)[C@H](Cc1ccccc1)NC(=O)[C@@H](N)Cc1ccccc1)[C@@H](C)O)C(=O)N[C@H](C(=O)N1CCC[C@H]1C(=O)N[C@@H](CO)C(=O)N[C@@H](CC(C)C)C(=O)N[C@@H](Cc1ccccc1)C(=O)N[C@@H](CCC(N)=O)C(=O)N[C@@H](CS)C(N)=O)[C@@H](C)CC  EC50 (human red blood cells; pH 7.4; baseline: Triton X-100): 12000 nM
N[C@@H]1C[C@H]1c1ccccc1  viability (HBL-1; 0.5 µM, 120 h): 131%
COc1cc2c(Oc3ccc4[nH]c(C)cc4c3F)ccnc2cc1OCC1(N)CC1  grade 1 or 2 gingival bleeding (paediatric recurrent refractory sarcoma; 12 mg): 0%
Nc1ncc(-c2nc(N3CCOCC3)nc(N3CCOCC3)n2)c(C(F)F)n1  GI50 (T24; 72 h): 557 nM
COc1c(CCC[P+](c2ccccc2)(c2ccccc2)c2ccccc2)cc2c(c1OC)OCO2.[I-]  TGI (NCI-H23; SRB): -4.99 log M
CC[C@H](C)[C@@H]1NC(=O)[C@@H]2CCCN2C(=O)[C@H](CC(C)C)NC(=O)[C@H](CC(C)C)NC(=O)CNC(=O)[C@@H](NC(=O)[C@@H](NC(=O)[C@H](CC(=O)O)NC(=O)CNC(=O)[C@@H](NC(=O)[C@H](C)NC(=O)CNC(=O)[C@H](CCCCN)NC(=O)[C@H](CC(C)C)NC(=O)[C@H](CC(C)C)NC(=O)[C@H](CCCCN)NC(=O)CNC(=O)[C@@H](NC(=O)[C@@H](N)CC(C)C)C(C)C)C(C)C)C(C)C)CSSC[C@@H](C(=O)O)NC1=O  log2 fold change (RNA-seq, refers to: Mmp19; mouse, traumatic brain injury model, frontal cortex and hippocampus; dose not given; baseline: TBI alone): -2.14
CC(C)N1CCC(NC2CCN(c3cccc(-c4cc5cc(F)ccc5[nH]4)c3)CC2)CC1  CC50 (NCI-H322M): 6280 nM
COc1c(C)c2c(c(O)c1C/C=C(\C)CCC(=O)O)C(=O)OC2  IC50 (PLC-PRF-5; cell proliferation; liver cancer): 1170 nM
COc1cc(Nc2ncc(F)c(Nc3ccc4c(n3)NC(=O)C(C)(C)O4)n2)cc(OC)c1OC  IC50 (C-C chemokine receptor type 2 (CCR2, Homo sapiens, UniProt P41597)): > 10000 nM
CN1CCN(S(=O)(=O)c2cc([N+](=O)[O-])ccc2N(CCOS(C)(=O)=O)CCOS(C)(=O)=O)CC1  IC50 (sample F T-ALL PDX cells; cell viability; ex vivo): 38.4 nM
C[C@H]1CN(c2n[nH]c3nc(N[C@H]4CC[C@H](NS(=O)(=O)CCC(F)(F)F)CC4)ncc23)CCO1  relative abundance (Prohibitin-2 (PHB2, Homo sapiens, UniProt Q99623); inhibitor, Kinobeads competition profiling; 0.16 µM; baseline: vehicle): 0.96
CC[C@H](C)[C@H](NC(=O)[C@H](C)NC(=O)[C@H](CCCCN)NC(=O)[C@H](CC(C)C)NC(=O)[C@H](C)NC(=O)[C@@H](NC(=O)[C@H](Cc1c[nH]cn1)NC(=O)[C@H](CC(C)C)NC(=O)[C@@H](NC(=O)[C@@H](NC(=O)[C@H](CCCCN)NC(=O)[C@H](C)NC(=O)[C@H](C)NC(=O)[C@H](CO)NC(=O)[C@H](CCCCN)NC(=O)[C@H](Cc1ccccc1)NC(=O)[C@@H](NC(=O)[C@H](CCCCN)NC(=O)[C@H](CC(C)C)NC(=O)[C@H](Cc1ccccc1)NC(=O)[C@H](CO)NC(=O)[C@H](CCCCN)NC(=O)[C@H](Cc1c[nH]c2ccccc12)NC(=O)[C@H](CCCCN)NC(C)=O)[C@@H](C)O)[C@@H](C)O)C(C)C)[C@@H](C)O)C(=O)N[C@@H](CO)C(=O)N[C@@H](CO)C(N)=O  MBC90 (Klebsiella pneumoniae; 80 strains): 64 µg/mL (≈ 21.8 µM)

Repeated from above:
COc1cc2c(Oc3ccc4[nH]c(C)cc4c3F)ccnc2cc1OCC1(N)CC1  grade 1 or 2 gingival bleeding (paediatric recurrent refractory sarcoma; 12 mg): 0%
CC[C@H](C)[C@H](NC(=O)[C@H](C)NC(=O)[C@H](CCCCN)NC(=O)[C@H](CC(C)C)NC(=O)[C@H](C)NC(=O)[C@@H](NC(=O)[C@H](Cc1c[nH]cn1)NC(=O)[C@H](CC(C)C)NC(=O)[C@@H](NC(=O)[C@@H](NC(=O)[C@H](CCCCN)NC(=O)[C@H](C)NC(=O)[C@H](C)NC(=O)[C@H](CO)NC(=O)[C@H](CCCCN)NC(=O)[C@H](Cc1ccccc1)NC(=O)[C@@H](NC(=O)[C@H](CCCCN)NC(=O)[C@H](CC(C)C)NC(=O)[C@H](Cc1ccccc1)NC(=O)[C@H](CO)NC(=O)[C@H](CCCCN)NC(=O)[C@H](Cc1c[nH]c2ccccc12)NC(=O)[C@H](CCCCN)NC(C)=O)[C@@H](C)O)[C@@H](C)O)C(C)C)[C@@H](C)O)C(=O)N[C@@H](CO)C(=O)N[C@@H](CO)C(N)=O  MBC90 (Klebsiella pneumoniae; 80 strains): 64 µg/mL (≈ 21.8 µM)
COc1c(CCC[P+](c2ccccc2)(c2ccccc2)c2ccccc2)cc2c(c1OC)OCO2.[I-]  TGI (NCI-H23; SRB): -4.99 log M
